Measured values gathered from unrelated publications.
Every numbered part comes from another study and shows a few of its results, in no order. Values joined by “and” are separate records of one study, mostly repeats; a detail may differ.
Chain of UniProt P10721 (whole entry, unmodified, looked up): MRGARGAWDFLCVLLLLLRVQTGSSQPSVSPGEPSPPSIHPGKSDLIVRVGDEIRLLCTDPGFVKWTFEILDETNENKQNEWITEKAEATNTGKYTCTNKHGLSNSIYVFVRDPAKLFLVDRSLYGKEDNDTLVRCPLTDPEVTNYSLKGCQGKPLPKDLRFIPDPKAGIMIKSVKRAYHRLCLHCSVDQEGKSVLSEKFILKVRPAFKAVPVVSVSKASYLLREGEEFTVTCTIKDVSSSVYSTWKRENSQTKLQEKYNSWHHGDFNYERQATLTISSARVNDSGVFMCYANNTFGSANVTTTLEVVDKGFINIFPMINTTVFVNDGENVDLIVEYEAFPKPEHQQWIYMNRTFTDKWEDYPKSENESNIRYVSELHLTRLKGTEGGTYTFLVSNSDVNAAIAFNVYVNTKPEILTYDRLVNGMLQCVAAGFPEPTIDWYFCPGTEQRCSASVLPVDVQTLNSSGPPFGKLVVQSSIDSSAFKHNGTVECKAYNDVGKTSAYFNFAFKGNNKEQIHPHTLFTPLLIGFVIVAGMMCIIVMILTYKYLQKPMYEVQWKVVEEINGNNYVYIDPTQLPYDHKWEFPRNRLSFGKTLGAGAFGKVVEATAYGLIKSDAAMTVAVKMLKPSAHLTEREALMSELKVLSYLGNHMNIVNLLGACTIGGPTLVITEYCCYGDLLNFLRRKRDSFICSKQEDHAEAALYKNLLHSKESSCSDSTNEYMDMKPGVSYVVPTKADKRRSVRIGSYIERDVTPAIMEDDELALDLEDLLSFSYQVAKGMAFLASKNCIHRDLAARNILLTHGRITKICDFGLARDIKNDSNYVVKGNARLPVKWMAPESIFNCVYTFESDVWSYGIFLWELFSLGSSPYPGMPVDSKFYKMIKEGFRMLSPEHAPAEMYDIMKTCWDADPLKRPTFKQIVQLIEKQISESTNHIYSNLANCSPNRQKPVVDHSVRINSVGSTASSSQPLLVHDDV
Chain of UniProt Q9H3Y6 (whole entry, looked up): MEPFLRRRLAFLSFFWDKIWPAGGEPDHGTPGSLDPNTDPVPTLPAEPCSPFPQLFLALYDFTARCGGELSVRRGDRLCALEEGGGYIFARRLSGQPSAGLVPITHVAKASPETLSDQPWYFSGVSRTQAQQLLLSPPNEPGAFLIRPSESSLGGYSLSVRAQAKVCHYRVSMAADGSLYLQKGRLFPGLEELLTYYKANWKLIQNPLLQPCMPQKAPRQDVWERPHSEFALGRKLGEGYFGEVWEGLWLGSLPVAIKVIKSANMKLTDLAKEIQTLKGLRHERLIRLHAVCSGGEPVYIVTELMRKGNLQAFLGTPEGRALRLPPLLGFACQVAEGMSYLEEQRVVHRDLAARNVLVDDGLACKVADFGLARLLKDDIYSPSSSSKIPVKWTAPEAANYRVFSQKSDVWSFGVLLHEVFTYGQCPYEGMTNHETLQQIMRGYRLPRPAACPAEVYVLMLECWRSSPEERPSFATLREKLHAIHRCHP
Chain of UniProt P0C264 (whole entry, looked up): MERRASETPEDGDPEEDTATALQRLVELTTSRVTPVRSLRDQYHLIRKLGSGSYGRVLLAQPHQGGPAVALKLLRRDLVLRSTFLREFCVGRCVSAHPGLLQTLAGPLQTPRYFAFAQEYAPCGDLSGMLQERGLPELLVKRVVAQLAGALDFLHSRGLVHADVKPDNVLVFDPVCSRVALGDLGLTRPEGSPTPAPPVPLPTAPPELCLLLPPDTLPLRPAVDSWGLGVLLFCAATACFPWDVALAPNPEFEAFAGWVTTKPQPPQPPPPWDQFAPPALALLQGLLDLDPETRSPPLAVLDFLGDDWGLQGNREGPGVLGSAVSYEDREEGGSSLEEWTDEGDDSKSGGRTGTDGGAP
Chain of UniProt Q13233 (whole entry, looked up): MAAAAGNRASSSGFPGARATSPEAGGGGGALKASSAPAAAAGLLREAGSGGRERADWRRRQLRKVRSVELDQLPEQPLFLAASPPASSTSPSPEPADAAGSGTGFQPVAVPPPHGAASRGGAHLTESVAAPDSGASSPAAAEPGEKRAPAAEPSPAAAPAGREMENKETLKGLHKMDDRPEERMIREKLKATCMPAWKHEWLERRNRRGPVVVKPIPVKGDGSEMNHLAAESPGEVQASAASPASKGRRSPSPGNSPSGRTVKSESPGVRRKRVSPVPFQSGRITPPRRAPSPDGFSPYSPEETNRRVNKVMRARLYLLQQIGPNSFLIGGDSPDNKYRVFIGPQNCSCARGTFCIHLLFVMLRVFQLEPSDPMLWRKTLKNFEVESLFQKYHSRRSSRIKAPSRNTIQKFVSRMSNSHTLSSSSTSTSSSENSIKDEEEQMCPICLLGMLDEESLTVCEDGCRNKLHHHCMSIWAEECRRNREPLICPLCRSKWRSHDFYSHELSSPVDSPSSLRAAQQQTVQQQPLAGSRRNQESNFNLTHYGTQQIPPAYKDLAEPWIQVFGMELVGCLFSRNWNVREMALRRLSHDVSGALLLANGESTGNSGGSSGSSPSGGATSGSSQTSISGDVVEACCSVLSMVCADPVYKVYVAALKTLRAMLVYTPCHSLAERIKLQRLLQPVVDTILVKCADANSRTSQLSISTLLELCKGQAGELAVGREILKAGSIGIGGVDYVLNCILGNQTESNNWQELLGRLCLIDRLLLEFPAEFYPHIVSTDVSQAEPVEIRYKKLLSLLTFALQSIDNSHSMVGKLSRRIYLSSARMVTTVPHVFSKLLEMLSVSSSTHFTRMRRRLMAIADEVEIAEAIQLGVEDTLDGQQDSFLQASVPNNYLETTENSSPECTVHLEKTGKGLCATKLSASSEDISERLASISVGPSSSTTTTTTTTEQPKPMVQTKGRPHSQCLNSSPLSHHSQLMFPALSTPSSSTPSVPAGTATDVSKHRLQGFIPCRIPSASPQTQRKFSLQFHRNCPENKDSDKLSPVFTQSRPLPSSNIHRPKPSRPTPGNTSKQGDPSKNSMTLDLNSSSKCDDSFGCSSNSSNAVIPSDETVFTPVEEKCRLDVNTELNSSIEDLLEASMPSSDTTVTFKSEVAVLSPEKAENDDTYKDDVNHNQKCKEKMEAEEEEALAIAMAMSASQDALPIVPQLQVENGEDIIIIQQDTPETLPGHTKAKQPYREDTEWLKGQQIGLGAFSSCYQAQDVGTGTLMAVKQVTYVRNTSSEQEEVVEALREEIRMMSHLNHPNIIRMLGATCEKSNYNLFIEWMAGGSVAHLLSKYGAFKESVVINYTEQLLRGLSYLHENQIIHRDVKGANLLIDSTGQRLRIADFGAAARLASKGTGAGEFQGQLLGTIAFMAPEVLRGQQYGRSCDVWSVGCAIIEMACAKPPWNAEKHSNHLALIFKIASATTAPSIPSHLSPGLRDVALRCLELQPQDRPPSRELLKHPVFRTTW
Chain of UniProt P48736 (whole entry, looked up): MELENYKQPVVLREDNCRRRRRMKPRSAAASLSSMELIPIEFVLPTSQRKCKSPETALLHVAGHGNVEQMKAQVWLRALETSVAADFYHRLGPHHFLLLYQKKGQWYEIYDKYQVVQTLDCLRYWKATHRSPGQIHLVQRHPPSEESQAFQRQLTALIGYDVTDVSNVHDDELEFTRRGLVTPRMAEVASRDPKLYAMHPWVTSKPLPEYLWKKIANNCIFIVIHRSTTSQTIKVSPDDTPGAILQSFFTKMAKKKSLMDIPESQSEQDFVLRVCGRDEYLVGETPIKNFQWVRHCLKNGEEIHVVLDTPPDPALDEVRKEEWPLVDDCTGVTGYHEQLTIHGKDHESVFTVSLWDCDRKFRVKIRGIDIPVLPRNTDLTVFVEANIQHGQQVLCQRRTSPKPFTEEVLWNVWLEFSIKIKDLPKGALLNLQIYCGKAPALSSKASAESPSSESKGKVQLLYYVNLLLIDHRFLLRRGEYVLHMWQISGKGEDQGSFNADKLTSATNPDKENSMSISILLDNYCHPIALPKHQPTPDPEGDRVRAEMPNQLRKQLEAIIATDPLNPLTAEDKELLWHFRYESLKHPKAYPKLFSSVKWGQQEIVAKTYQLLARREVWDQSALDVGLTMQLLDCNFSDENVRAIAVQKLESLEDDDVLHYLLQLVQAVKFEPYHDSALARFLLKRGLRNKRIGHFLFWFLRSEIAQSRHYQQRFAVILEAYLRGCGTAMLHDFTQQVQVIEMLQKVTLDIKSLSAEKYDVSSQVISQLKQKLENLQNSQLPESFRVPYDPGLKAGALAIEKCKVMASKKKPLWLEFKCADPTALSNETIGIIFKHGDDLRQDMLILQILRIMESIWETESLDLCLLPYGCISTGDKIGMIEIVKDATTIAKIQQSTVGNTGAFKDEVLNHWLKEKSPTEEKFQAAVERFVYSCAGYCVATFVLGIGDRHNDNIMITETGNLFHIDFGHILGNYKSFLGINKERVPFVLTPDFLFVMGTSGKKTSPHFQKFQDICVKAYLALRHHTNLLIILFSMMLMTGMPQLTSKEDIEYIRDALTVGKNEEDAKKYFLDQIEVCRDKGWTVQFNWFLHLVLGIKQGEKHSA
Chain of UniProt P11309 (whole entry, looked up): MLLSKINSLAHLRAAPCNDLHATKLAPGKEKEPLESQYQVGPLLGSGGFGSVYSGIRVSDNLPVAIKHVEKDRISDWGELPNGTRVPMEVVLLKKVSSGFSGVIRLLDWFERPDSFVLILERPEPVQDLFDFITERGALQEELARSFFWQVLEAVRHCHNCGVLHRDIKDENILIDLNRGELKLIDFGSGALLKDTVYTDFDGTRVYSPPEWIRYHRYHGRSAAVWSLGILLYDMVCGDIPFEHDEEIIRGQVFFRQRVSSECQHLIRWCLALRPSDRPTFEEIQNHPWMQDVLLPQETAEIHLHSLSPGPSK

Set 1 — effect on: enzyme activity; action: inhibitor; concentration: 0.5 µM; relative to: control
Target: Cyclin-dependent kinase 5, with p35 (CDK5, Homo sapiens, UniProt Q00535)
Chain of UniProt Q00535 (whole entry, looked up): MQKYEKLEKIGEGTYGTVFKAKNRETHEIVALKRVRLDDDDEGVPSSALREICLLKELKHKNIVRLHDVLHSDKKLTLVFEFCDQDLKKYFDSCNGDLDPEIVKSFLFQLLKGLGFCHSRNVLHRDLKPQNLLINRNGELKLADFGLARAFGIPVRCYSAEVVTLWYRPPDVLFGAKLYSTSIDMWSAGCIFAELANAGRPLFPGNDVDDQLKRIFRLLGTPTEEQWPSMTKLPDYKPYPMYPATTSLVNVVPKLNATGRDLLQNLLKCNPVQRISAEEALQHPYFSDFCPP
| SMILES | remaining activity [%] |
| --- | --- |
| CCN(CC)CCNC(=O)c1c(C)[nH]c(/C=C2\C(=O)Nc3ccc(Cl)cc32)c1C | 86.2 |
| CCOc1nc(NC(=O)Cc2cc(OC)ccc2OC)cc(N)c1C#N | 105 |
| COc1cc2ncnc(Nc3ccc(O)c(Br)c3)c2cc1OC | 99.6 |
| Ic1cccc(CSc2nnc(-c3ccncc3)o2)c1 | 102 |
| N#C/C(=C\c1ccc(O)c(O)c1)C(=O)NCc1ccccc1 | 99.8 |
| Cn1nc2c3c(cccc31)C(=O)c1ccccc1-2 | 105 |
| Cc1cc2ncc(-c3ccccc3)nc2cc1C | 89.1 |
| Cc1nc2cc3nc(-c4cccs4)cnc3cc2n1C | 107 |
| CN(C)C[C@H]1CCn2c(c(C3=C(c4cn(C)c5ccccc45)C(=O)NC3=O)c3ccccc32)C1 | 85.4 |
| Nc1cccc(-c2cc3c(Oc4cccc(O)c4)ncnc3[nH]2)c1 | 72.2 |
| Cc1cn(-c2cc(NC(=O)c3ccc(C)c(Nc4nccc(-c5cccnc5)n4)c3)cc(C(F)(F)F)c2)cn1 | 105 |
| O=C(Nc1cccc(Nc2nccc(Nc3cccc(C(F)(F)F)c3)n2)c1)C1CC1 | 105 |
| CCN(CC)C(=O)c1ccc(Nc2nc(OCC3CCCCC3)c3[nH]cnc3n2)cc1 | 77.1 |
| C[C@@H]1CCN(C(=O)CC#N)C[C@@H]1N(C)c1ncnc2[nH]ccc12 | 99.5 |
| O=C1C(Cl)=C(N2C(=O)CCC2=O)C(=O)c2ccccc21 | 93.7 |
| O=C(NC(NC(=S)Nc1ccc(F)c([N+](=O)[O-])c1)C(Cl)(Cl)Cl)C(c1ccccc1)c1ccccc1 (centres unmarked) | 107 |
| CN([C@@H](Cc1ccc(OS(=O)(=O)c2cccc3cnccc23)cc1)C(=O)N1CCN(c2ccccc2)CC1)S(=O)(=O)c1cccc2cnccc12 | 99.5 |
| COc1cc2c(cc1OC)-c1[nH]nc(Nc3cccc(F)c3)c1C2 | 102 |
| O=c1cc(-c2cccc3c2Sc2ccccc2S3)oc(N2CCOCC2)c1 | 99.5 |
| N#Cc1c(NC(=O)c2cccc3ccccc23)sc2c1CCCC2 | 105 |
| c1ccc(-c2[nH]ncc2-c2ccnc3ccccc23)nc1 | 98.6 |
| c1ccc(-c2cnc(Nc3ccc(OCCN4CCCC4)cc3)s2)cc1 | 82.4 |
| COc1cc2ncnc(Nc3cccc(Cl)c3)c2cc1OC | 91 |

Set 2 — effect on: binding; action: competitor; technique: NanoBRET; cells: HEK293
SMILES: CN1CCC[C@H]1COc1nc2c(c(N3CCN(S(C)(=O)=O)[C@@H](CC#N)C3)n1)CCN(c1cccc3cccc(Cl)c13)C2
KRAS G13D: GTPase KRas (KRAS, Homo sapiens, UniProt P01116, G13D)
KRAS Q61R: GTPase KRas (KRAS, Homo sapiens, UniProt P01116, Q61R)
| target | concentration | normalized BRET |
| --- | --- | --- |
| KRAS G13D | 1.69 nM | 98.4% and 98% and 95.6% |
| KRAS G13D | 45.7 nM | 93.2% and 91.8% and 80.6% |
| KRAS G13D | 412 nM | 65.5% and 71.5% and 62.1% |
| KRAS Q61R | 15.2 nM | 81.4% and 82.1% and 97.4% |
| KRAS G13D | 137 nM | 86.8% and 94.1% and 83% |
| KRAS G13D | 5.08 nM | 102% and 104% and 92.5% |
| KRAS Q61R | 137 nM | 98.6% and 83.1% and 82% |
| GTPase KRas (KRAS, Homo sapiens, UniProt P01116, G12D) | 137 nM | 99.2% and 95.1% and 94.2% |

Set 3 — effect on: binding; concentration: 1 µM
Compound: CN1CCN(C(=O)c2ccc(NC(=O)Nc3ccc(N(C)c4ccnc(Nc5ccc(CS(C)(=O)=O)cc5)n4)cc3)cc2)CC1
| target | technique | remaining binding |
| --- | --- | --- |
| CAMKK2 (Homo sapiens, UniProt Q96RR4) | – | 100% |
| KIT (Homo sapiens, UniProt P10721, T670I/V559D) | – | 0.1% |
| COQ8B (Homo sapiens, UniProt Q96D53) | – | 47% |
| FLT3 (Homo sapiens, UniProt P36888, D835V) | – | 1.2% |
| GRK7 (Homo sapiens, UniProt Q8WTQ7) | – | 100% |
| PIK3CG (Homo sapiens, UniProt P48736) | – | 93% |
| CHUK (Homo sapiens, UniProt O15111) | – | 90% |
| SRPK2 (Homo sapiens, UniProt P78362) | – | 80% |
| MAP3K6 (Homo sapiens, UniProt O95382) | – | 67% |
| Myosin-IIIa (MYO3A, Homo sapiens, UniProt Q8NEV4) | – | 7% |
| CAMKK1 (Homo sapiens, UniProt Q8N5S9) | – | 28% |
| PLK4 (Homo sapiens, UniProt O00444) | competition with immobilised ligand | 2.7% |
| EGFR (Homo sapiens, UniProt P00533, G719S) | – | 100% |
| NIM1K (Homo sapiens, UniProt Q8IY84) | – | 99% |

Set 4 — effect on: cell-free assay; technique: competition with immobilised ligand; concentration: 1 µM
SMILES: O=C(NCc1ncc(C(F)(F)F)cc1Cl)c1ccc2c(c1)C1(CCS(=O)(=O)CC1)[C@H](C1CC1)N2S(=O)(=O)c1ccc(F)cc1
| target | remaining binding |
| --- | --- |
| EPHA3 (Homo sapiens, UniProt P29320) | 100% |
| Tyrosine-protein kinase ABL1, non-phosphorylated (ABL1, Homo sapiens, UniProt P00519, Q252H) | 100% |
| EGFR (Homo sapiens, UniProt P00533, G719S) | 92% |
| MAP3K1 (Homo sapiens, UniProt Q13233) | 63% |
| CDKL1 (Homo sapiens, UniProt Q00532) | 90% |
| Mast/stem cell growth factor receptor Kit, autoinhibited (KIT, Homo sapiens, UniProt P10721) | 76% |
| RET (Homo sapiens, UniProt P07949, V804L) | 92% |
| PIK3CA (Homo sapiens, UniProt P42336, E545A) | 89% |
| PAK3 (Homo sapiens, UniProt O75914) | 91% |
| MAPK10 (Homo sapiens, UniProt P53779) | 88% |
| PIM1 (Homo sapiens, UniProt P11309) | 100% |
| MAPK3 (Homo sapiens, UniProt P27361) | 100% |
| CSK (Homo sapiens, UniProt P41240) | 97% |
| KIT (Homo sapiens, UniProt P10721, T670I/V559D) | 100% |
| PRKACA (Homo sapiens, UniProt P17612) | 86% |
| MAP3K10 (Homo sapiens, UniProt Q02779) | 100% |
| SBK3 (Homo sapiens, UniProt P0C264) | 100% |
| SRMS (Homo sapiens, UniProt Q9H3Y6) | 71% |
| MAP4K5 (Homo sapiens, UniProt Q9Y4K4) | 82% |
| STK17A (Homo sapiens, UniProt Q9UEE5) | 100% |

Excerpt of the above (set 1):
| SMILES | remaining activity [%] |
| --- | --- |
| O=C(Nc1cccc(Nc2nccc(Nc3cccc(C(F)(F)F)c3)n2)c1)C1CC1 | 105 |
| c1ccc(-c2cnc(Nc3ccc(OCCN4CCCC4)cc3)s2)cc1 | 82.4 |
| Cc1nc2cc3nc(-c4cccs4)cnc3cc2n1C | 107 |
| O=C(NC(NC(=S)Nc1ccc(F)c([N+](=O)[O-])c1)C(Cl)(Cl)Cl)C(c1ccccc1)c1ccccc1 (centres unmarked) | 107 |
| C[C@@H]1CCN(C(=O)CC#N)C[C@@H]1N(C)c1ncnc2[nH]ccc12 | 99.5 |
| Nc1cccc(-c2cc3c(Oc4cccc(O)c4)ncnc3[nH]2)c1 | 72.2 |
| COc1cc2ncnc(Nc3cccc(Cl)c3)c2cc1OC | 91 |
| Ic1cccc(CSc2nnc(-c3ccncc3)o2)c1 | 102 |
| CCOc1nc(NC(=O)Cc2cc(OC)ccc2OC)cc(N)c1C#N | 105 |
| CN(C)C[C@H]1CCn2c(c(C3=C(c4cn(C)c5ccccc45)C(=O)NC3=O)c3ccccc32)C1 | 85.4 |
| N#Cc1c(NC(=O)c2cccc3ccccc23)sc2c1CCCC2 | 105 |
